Measured values of several laboratories.
A part holds a random share of what one study measured. Substitutions count along the parent as printed.

Study 1 — technique: RNA Bind-n-Seq; molecule type: RNA; matrix: in vitro; tested at: 365 nM; baseline: no-protein control; reading: higher = stronger binding; endpoint: RBNS enrichment (R)
Target: RNA binding protein fox-1 homolog 2, RRM domain, GST-SBP tag (RBFOX2, Homo sapiens, UniProt O43251-10, residues 100-194)
Notes: natural RNA segment, single round, ends assumed
Shared flanks, not repeated: GGGAGUUCUACAGUCCGACGAUC … UGGAAUUCUCGGGUGCCAA
Residues (chain): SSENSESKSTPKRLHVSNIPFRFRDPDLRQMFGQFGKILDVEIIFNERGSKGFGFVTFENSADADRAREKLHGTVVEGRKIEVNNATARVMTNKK
AUCUUGGAGAAUAAAAAAGGACUUGGAAAACAAGUCUUAGUAGUCAUUCAGAGGACUCAAGUACUAGUGCUAGGUCUCUUUCCUUCCACUCUCUCUCUCUCUCUCUCUCU: 0.389
CCCUCAUUUUCCCCACUCUCAAUGUCCCAGUGUCCAGCGUGACUAAGGACACGGGCCCCCUUCCGUCCUCGGGCUCCCGGUCCCCUCCUAUUUAUGGGGUCUGACCAACU: 1.23
CAGAAGGGUAAAACUGACUCUUAAUGAGAAAAGCUUUAUAAGUUCAAGGGCUGUAAAAUAUGAACUACUUAGGGUCGUUUGCCUUCCAUGGGAACUUGGCUAGACUUAGA: 0.45
ACUGGAAGGGGUUUUUGUAUAACUAAAACCUCAGCGCAUAAAGGAGAUUUAAAAGGAGCACAUGAUUUAGUGGGUGGGCCAUGAAACUAGAGAUGGGAUUUGGGGGUGAA: 1.13
AACCAACCCCAGGCCCACCCAGAGCGAGCAAACGCUGAGACCUGAAAGGACAUGGAUGAGAAGAGGAGCCCGCUUCCUGUACAUAUAUUUAAGUGACAAACACGGUCAAA: 0.386
UUUUGCACUCAGCUUAUUACAGGUAGGUAGUGCUUAAGAAAAGUCAUGGAGGACUAAAGCCUAAGUCCUUUUCACUUUUCCUCCAUCUGAAGGUAGGUGAGUUCAUCCUC: 0.233
ACUCAGAUGGAAAAGUAUUCUAGGUGCCAGUGUUAGGAUGUCAGUUUUACAAAAUAAUGAAGCAAUUAGCUAUGUGAUUGAGAGUUAUUGUUUGGGGAUGUGUGUUGUGG: 3.78
AACGUACAGGCCAUCAAGACUAUUUAUUUAAAUACAAAAAAAGGGGAAAACACACACACGGAAAAAAAAUUGUAAGCACUUUUUUUGUAAAACCAAUGUCUGUUUUGUUA: 0.713
GCUCUUUGGUUUCUUAAAAGGAAAGCUUGUUUUCUUUCCUUUAUCAUUACAGAGGUAUGUCUUUGGUUCUUAAACUAUCUGUCUAAAAUAAAGCUGUAAAAAAUUAACAG: 0.401
GAGUUCCGAAGCAAGUCAAGUUUGUAAAUGCAUACCUAAAAAUAUUUAAUAAACGAUGCAGAAUCCUAUGCAGUGACUGGCUGGUGGCUUUCAUUUGUCAUUUCCUUGUG: 0.505
UUCAUAAUGCAGUUGCCCAAGGCCUGUCUUGCAGUGGUACCUUAAAGUUAACCUCAUAAUCUUGGAACUUGGGCUCCAACCCUUAUGAUUGUGGAGUGUUUACUAGAUAC: 0.497
GGAAAAAAAAGACAAAUUAAAGGAGGGGCUAGGGGAGAAGCUGCAGCUGGAGCUGAAGGCUCGAUCUUGUGAACCCCUAAAUCCGCUCCCUCCUAACAGCACGGAUUCUC: 0.422

Study 2 — technique: protein binding microarray; molecule type: double-stranded DNA, one strand shown; matrix: in vitro; tested at: not given; baseline: not given; reading: higher = stronger binding; endpoint: E-score
Target: Histone acetyltransferase KAT6A, winged helix 1, GST fusion (KAT6A, Homo sapiens, UniProt Q92794, residues 1-85)
Notes: 8-mer, flanks averaged, mean of 2 arrays, mostly near background
Target sequence (chain): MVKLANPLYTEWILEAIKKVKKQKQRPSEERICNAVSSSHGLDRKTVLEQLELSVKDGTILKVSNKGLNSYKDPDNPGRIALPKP
CAAACCCC: -0.0702
AACCCTGT: -0.169
ACTACATC: -0.171
CCGCCCTC: 0.33
TGTTGTAA: -0.0356
CAGTGGAG: -0.153
AGAGTTCC: -0.131
CCTACGCG: 0.288
AAAGAAAT: -0.31
CCGTGCCA: 0.128
CACCAGCC: -0.0467
TAGGAAAA: -0.0635
GCAGCAGC: -0.0306
TGTGTTAA: -0.00025
AGTGCTAG: -0.105
TAGAGTCA: -0.059
AGAGTGCC: -0.176
CATTGGGC: -0.0948
CTTGTCGA: -0.0622
CCGTCGTC: 0.295
CCGGTCTA: -0.0165
GCCTGGAA: -0.246
ATCGCGTG: 0.146
ATATGGCG: 0.194
CCTGGACA: -0.208

Study 3 — target: CCND2, cyclin fold, Cln2 fusion (human); technique: yeast growth competition, sequencing; matrix: yeast; notes: weak parent motif; baseline: not given; reading: higher = stronger binding; endpoint: normalised enrichment score
Starting sequence: RBL2 docking peptide (human); STTRRRLFVENDS
R5C: 0.322
D12T: 0.0336
N11K: 0.147
N11H: 0.2
S13Q: -0.07
F8T: 0.256
S1F: 0.0736
S1K: 0.00103
S13H: -0.0103
L7N: -0.129
E10Q: -0.0795
F8R: 0.127
V9G: 0.195
T2P: 0.224
S13I: 0.29
D12R: 0.161
R5T: 0.698
F8K: 0.288
L7R: 0.763
R6A: 0.257
S13A: -0.032
N11C: 0.446
E10V: 0.559
E10S: 0.00613
E10G: -0.153

Study 4 — technique: RNA Bind-n-Seq; molecule type: RNA; matrix: in vitro; tested at: 1 µM; notes: whole 134-nt RNA, ends assumed; added: 150 mM KCl; baseline: input library; reading: higher = stronger binding; endpoint: log2 enrichment
Target: Ras GTPase-activating protein-binding protein 1, RRM domain (G3BP1, Homo sapiens, UniProt Q13283)
Sequence of UniProt Q13283 (whole entry, looked up): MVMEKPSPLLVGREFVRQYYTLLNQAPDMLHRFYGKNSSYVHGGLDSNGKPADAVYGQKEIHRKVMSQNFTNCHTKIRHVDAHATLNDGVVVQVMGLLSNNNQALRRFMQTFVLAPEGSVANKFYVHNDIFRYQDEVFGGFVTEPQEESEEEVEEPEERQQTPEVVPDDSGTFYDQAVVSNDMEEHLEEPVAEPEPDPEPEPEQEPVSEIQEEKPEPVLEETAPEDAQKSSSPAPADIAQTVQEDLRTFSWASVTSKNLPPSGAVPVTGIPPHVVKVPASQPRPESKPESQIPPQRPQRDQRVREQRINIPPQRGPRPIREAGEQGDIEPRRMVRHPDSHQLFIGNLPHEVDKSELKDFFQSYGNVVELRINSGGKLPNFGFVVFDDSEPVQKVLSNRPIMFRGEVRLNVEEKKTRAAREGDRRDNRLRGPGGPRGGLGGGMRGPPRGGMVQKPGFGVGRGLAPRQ
Shared flanks, not repeated: GGGAGUUCUACAGUCCGACGAUC … UGGAAUUCUCGGGUGUCAAGG
UCAAGUCCUGUGCUACACAUCGUAUGUACCGAAUCGGUGGAAAAAAAGGUUUGGAAAGUAUUAUGUUACGCCGUUCGGAUCUGCACUUCC: -0.199
CCUGUGCUACACAUCGUAUGUACCGAAUCGGGGAAAAAAGGGGAAAAAAGGGGAAAAAAGGAAAGUAUUAUGUUACGCCGUUCGGAUCUG: -0.11
GUCCUGUGCUACACAUCGUAUGUACCGAAUCGGGGAAAGGGGAAAAAAAGGGGUGGGGAAAGUAUUAUGUUACGCCGUUCGGAUCUGCAC: 1.02
CACAGACAACACGCACCCACACAGACACAGAGGGAAGGGGUUGGGAUGGGGUCAGGGUGCACAGCAGGGCGGGGUAGGACCCCAGCCCCU: 0.134
AGUCCUGUGCUACACAUCGUAUGUACCGAAUCGGGGCCCCGGGCCCCGGGGCCCCGGGAAAGUAUUAUGUUACGCCGUUCGGAUCUGCAC: 0.273
UGGGAGGUGGAUUUUGUUUAUUUUUUUAGCUCAUUUCCAGGGGUGGGAAUUUUUUUUUAAUAUGUGUCAUGAAUAAAGUUGAUUUUGAAA: 2.05
UCCUGUGCUACACAUCGUAUGUACCGAAUCAAACCCCCCCAAACCCCCCCAAAUUUAAAAAAGUAUUAUGUUACGCCGUUCGGAUCUGCA: -0.136
AAGUCCUGUGCUACACAUCGUAUGUACCGAAUCGGGCCCCGGCCCCGGGGCCCCGGGAAAGUAUUAUGUUACGCCGUUCGGAUCUGCACU: -0.658
GUCCUGUGCUACACAUCGUAUGUACCGAAUCAAAUUUAAAUUUUUAAAUUUUUUUAAAAAAGUAUUAUGUUACGCCGUUCGGAUCUGCAC: -0.759
GCAGGAAGUAAAAACAAAUGGAAAUGCUUCGGAUAGUGGCAGGGGUGGGGGUUGCUAAGGAAAGGGUGGGAUGGGAGUGGGUAAGGAGUU: 0.846
CACAGACAACACGCACCCACACAGACACAGAGGGAAGGGGUUGGGAUGGGGACAGGGUGCACAGCAGGGCGGGGUGGGACCCCAGCCCCU: -0.295

Study 5 — technique: RNA Bind-n-Seq; molecule type: RNA; matrix: in vitro; tested at: not given; baseline: input RNA pool; reading: higher = stronger binding; endpoint: bound/input enrichment
Target: RING finger protein unkempt homolog, zinc fingers 1-6, GST-SBP tag (UNK, Homo sapiens, UniProt Q9C0B0, residues 30-357)
Notes: RNA with constant flanks, human-mouse chimeric sites, ends assumed
Shared flanks, not repeated: GGGAGUUCUACAGUCCGACGAUC … CAACAGAGGAUUGAGCAUCA
Residues (chain): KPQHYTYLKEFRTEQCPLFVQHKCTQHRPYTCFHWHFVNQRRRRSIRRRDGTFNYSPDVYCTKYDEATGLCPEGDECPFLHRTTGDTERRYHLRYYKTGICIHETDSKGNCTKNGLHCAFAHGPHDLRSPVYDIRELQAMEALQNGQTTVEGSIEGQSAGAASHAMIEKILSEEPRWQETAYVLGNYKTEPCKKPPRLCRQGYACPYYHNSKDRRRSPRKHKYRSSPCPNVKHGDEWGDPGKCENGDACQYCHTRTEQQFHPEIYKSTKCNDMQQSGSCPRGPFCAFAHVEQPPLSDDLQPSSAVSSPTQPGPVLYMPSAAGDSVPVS
UCGGAUGCUGUGCUGGGUCACUUUCCGUAUCCAGAUCCUUCACAGUGGACAGAUGAAGAACUGGGAAUCCCUCCUGAUGACGAGGACUGAAGGUGUAAACUCUCUGGACGAGUAGGAGCA: 0.481 ratio
GAAUCCUACUCAGGCGGAUUUUGCAACACCAAGCUCACAGCAGCAGCAUCUUAGUCACAGUAGGGUAGUUUUGGGGCAAUAUUGCCAUGGUUUUACUCACAUGCAGGUUUGGAAAAUGUA: 1.08 ratio
AUCAAAUACUUUGGGGACAUCAUUAGUGUGGGACAGAGACUGUUGCAAGGGGCCCGGAUCUUAGGGAUUCCAGUUAUCAUAACGGAACAAUACCCCAAAGGACUUGGGAGCACGGUUCAA: 0.302 ratio
GUAUACGGUUAUCGAGGAAAGGACUGUAGAGCGAAUGUAUACCUGCUUCCGACCGGGGAGAUAGUUUAUUUUAUCGCAUCAGUAGUAGUCCUGUUUAAUUAUGAGGAGAGGACUCAGCGA: 3.61 ratio
UUUGUAUUCAUGUUAAGCACACGUGCUGGUGGUCUGGGCAUCAAUCUUGCAACUGCUGAUGUAGUCAUUUUAUAUGACUCAGAUUGGAAUCCCCAAGUUGAUCUUCAGGCUAUGGACCGU: 0.152 ratio
UAACCACAUCAAGAUGGUUGGGAAGCUGAAGCAGAACUUACUCUUGGCGUGUCUGGUGAUUAGUUCUGUGACUGUGUUUUACCUGGGCCAGCAUGCCAUGGAAUGCCAUCACCGAAUAGA: 0.162 ratio
UUACCCGAGAACGAGGAUGAGCUGGAGAGCACCAAUAGGCGCUACACCAAGAGGGACUGCAGCACUUUCCUCAGAACUAGCGAGACGGGCAUCGUGGACCAGGUCAUGGUCACUCUCAAC: 0.147 ratio
GUAGCUGGGACUACAGAAGAAUGCUGAAUUUCAGUCACUUGCUGAUGACUUCUGAUGUCCCAGCAAAUGUUGGCAUUGUUGACUGCUGAGAAGAUACACUCGCAAGGCCACGUCUAAGGU: 0.073 ratio
AUGGAAAAGGAUUCUCUGCCUCGCUUUGUGCGCUCUGAAUUUUAUAAGGAGCUAAUCAAGUAGUCAUCUGGUCAGGCUUCCAAAAGUUGCCCUGUGAGUUGAGUUACAUCCUUUGUAGCA: 0.216 ratio
GUACUGCAGCAGCAGGGAAAACUGCAGGAAGCUCUGAUGCACUAUAAGGAGGCUAUUCGAAUCAGUCCUACCUUUGCUGAUGCCUACUCCAAUAUGGGAAACACUCUAAAGGAGAUGCAG: 0.117 ratio
GGCUGCUACUAUUCUCCCUGGAGUGGCUGGAGUUCCCGCCGGAGCGCGGCCAGACUAAUUUUAGAAAAUGCCAAGUAGGAAGUUUGUUGAGGGUGAAGUGGUAAGAGGCCGAUGGCCUGG: 7.42 ratio

Study 6 — technique: universal PBM; molecule type: double-stranded DNA, one strand shown; matrix: in vitro; tested at: 600 nM; reading: higher = stronger binding; endpoint: E-score
Target: Sal-like protein 4, full length isoform A (SALL4, Homo sapiens, UniProt Q9UJQ4, residues 1-1053)
Sequence of UniProt Q9UJQ4 (whole entry, looked up): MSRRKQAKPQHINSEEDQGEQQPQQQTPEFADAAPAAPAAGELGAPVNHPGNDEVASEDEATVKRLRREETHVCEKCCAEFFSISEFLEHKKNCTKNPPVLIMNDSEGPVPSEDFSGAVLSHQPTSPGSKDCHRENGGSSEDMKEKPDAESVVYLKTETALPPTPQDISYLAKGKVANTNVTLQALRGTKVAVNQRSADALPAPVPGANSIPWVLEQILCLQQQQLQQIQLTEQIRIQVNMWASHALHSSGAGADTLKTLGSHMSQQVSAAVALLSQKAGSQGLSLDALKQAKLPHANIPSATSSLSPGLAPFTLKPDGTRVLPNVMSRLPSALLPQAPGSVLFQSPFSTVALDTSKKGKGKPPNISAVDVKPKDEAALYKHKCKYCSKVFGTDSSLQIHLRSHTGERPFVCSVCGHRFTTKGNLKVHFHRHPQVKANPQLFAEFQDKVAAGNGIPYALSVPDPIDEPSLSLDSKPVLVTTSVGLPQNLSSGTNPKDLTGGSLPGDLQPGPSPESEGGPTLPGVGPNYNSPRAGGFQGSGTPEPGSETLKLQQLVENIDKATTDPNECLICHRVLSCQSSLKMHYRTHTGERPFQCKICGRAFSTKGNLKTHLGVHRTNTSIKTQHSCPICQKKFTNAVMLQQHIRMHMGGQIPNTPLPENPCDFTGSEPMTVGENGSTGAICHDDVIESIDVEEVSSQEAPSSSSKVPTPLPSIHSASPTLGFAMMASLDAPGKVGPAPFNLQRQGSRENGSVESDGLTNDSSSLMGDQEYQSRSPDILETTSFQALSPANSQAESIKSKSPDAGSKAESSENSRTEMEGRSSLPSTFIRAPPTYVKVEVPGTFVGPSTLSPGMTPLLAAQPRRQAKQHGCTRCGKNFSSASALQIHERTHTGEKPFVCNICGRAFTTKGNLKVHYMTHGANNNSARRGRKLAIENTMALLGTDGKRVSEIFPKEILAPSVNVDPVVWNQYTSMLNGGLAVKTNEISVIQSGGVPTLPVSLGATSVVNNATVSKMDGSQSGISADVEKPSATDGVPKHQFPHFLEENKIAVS
Notes: 8-mer, flanks averaged, mean of replicates
TAGAATCA: 0.102
CAGCGCCG: -0.365
TACAACGA: 0.178
GCATGGCC: -0.208
TTACTCAA: 0.264
AAATCAAT: 0.318
ACTTCAGC: -0.16
CTAAGGTA: 0.0228
GAGAATCC: -0.194
AGTATGGG: 0.0453
CACGCGGG: -0.271
ACACCCAT: 0.0866
AAGGCTAT: 0.0613
GCGATTAC: -0.0716
GATGCCGA: -0.132
AAGAAGAG: 0.0749
ACACTAGT: 0.018
TCAGATAA: 0.202
GAAAAGAC: 0.0908
GACGTGAC: -0.0766
AGGTCAGA: -0.198
AAACAACA: 0.195
ATAGTTAG: 0.184
ATGCGTTC: 0.0621
TGGCCTAA: 0.0169
